Measurements pooled from the literature.
Lines come from different studies, so protocols differ. Values joined by “and” are separate records of one study, mostly repeats; a detail may differ. ± marks the error that the study gave.
YWHAZ: 14-3-3 protein zeta/delta (YWHAZ, Homo sapiens, UniProt P63104)
Sequence of UniProt P63104 (whole entry, looked up): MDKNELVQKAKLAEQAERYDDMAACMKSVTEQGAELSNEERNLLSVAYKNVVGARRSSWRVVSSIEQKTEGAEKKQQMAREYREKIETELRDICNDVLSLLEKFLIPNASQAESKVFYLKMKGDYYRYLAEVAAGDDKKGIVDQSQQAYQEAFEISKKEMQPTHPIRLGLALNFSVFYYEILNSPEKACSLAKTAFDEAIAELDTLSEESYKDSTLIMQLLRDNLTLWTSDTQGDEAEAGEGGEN
VSIR IgV domain: V-type immunoglobulin domain-containing suppressor of T-cell activation, IgV domain (VSIR, Homo sapiens, UniProt Q9H7M9)
Sequence of UniProt Q9H4M9 (whole entry, looked up): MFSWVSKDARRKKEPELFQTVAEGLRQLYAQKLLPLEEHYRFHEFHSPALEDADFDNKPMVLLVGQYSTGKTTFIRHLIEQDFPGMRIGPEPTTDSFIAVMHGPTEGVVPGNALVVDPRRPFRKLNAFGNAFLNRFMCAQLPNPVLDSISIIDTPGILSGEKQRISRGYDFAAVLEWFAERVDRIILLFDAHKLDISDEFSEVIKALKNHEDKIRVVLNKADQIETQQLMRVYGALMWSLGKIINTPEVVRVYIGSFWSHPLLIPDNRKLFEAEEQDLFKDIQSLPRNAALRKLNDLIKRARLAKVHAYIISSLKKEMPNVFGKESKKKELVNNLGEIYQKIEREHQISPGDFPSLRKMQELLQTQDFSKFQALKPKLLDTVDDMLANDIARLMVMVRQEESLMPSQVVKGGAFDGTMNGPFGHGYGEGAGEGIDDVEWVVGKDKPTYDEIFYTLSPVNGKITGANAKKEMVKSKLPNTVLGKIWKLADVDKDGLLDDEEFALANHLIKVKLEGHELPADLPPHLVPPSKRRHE
Sequence of UniProt Q9H2X3 (whole entry, looked up): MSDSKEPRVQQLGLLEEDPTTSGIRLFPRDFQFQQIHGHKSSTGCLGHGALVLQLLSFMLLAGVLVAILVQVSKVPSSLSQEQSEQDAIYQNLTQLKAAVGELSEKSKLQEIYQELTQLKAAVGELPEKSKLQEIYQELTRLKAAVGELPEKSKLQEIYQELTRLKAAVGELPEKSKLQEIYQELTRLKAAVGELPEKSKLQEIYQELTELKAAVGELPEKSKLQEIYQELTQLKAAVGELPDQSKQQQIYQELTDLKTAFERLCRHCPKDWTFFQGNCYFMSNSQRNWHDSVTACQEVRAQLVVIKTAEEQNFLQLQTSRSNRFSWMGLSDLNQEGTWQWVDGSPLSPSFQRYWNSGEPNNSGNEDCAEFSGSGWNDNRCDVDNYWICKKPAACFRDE
Sequence of UniProt Q9H7M9 (whole entry, looked up): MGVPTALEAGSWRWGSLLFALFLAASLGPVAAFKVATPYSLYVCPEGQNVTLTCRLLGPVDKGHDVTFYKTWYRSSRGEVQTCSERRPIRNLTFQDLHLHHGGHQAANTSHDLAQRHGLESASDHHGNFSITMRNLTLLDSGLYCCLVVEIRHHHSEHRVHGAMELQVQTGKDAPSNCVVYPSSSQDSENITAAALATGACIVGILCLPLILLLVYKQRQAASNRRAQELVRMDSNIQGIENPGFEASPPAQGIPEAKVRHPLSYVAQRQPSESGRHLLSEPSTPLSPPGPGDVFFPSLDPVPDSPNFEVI
Sequence of UniProt P29066 (whole entry, looked up): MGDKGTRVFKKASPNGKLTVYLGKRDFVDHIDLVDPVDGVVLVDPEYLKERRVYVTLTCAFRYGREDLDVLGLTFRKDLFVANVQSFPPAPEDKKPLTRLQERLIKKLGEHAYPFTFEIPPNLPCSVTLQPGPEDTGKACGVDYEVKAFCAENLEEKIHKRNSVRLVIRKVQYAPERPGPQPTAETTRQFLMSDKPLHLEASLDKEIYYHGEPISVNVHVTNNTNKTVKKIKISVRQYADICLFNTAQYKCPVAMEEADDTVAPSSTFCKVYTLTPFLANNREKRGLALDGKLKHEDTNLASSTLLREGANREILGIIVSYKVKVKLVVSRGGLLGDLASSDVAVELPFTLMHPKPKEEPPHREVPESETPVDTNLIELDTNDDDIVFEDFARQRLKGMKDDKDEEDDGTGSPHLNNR
Sequence of UniProt Q14145 (whole entry, looked up): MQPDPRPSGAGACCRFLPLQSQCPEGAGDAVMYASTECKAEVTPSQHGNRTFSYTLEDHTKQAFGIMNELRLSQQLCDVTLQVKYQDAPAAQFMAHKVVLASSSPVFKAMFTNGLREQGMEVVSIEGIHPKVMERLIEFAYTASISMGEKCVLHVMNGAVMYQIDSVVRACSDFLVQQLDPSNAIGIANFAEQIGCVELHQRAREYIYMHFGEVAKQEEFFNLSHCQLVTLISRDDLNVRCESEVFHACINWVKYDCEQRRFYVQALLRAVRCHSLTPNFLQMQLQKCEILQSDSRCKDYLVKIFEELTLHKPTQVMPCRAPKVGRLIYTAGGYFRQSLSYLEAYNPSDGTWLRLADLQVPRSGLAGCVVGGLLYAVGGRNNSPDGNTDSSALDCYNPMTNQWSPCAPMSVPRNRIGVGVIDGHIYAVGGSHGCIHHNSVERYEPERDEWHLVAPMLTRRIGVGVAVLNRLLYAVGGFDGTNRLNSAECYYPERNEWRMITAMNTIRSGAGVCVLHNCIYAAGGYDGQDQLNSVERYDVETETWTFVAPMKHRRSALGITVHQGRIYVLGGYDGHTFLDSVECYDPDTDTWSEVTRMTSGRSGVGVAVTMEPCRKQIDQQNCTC
Sequence of UniProt Q8NEZ5 (whole entry, looked up): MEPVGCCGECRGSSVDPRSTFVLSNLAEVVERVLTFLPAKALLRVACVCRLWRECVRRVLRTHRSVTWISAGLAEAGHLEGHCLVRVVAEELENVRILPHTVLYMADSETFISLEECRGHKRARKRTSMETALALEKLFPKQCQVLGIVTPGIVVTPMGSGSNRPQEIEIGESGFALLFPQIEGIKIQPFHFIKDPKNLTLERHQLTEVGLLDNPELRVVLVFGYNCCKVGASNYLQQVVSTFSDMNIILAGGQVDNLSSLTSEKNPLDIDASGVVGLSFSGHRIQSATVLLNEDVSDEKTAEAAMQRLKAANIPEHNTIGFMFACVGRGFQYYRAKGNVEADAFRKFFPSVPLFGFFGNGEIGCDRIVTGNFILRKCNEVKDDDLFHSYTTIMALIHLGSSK
Sequence of UniProt P33913 (whole entry, unmodified, looked up): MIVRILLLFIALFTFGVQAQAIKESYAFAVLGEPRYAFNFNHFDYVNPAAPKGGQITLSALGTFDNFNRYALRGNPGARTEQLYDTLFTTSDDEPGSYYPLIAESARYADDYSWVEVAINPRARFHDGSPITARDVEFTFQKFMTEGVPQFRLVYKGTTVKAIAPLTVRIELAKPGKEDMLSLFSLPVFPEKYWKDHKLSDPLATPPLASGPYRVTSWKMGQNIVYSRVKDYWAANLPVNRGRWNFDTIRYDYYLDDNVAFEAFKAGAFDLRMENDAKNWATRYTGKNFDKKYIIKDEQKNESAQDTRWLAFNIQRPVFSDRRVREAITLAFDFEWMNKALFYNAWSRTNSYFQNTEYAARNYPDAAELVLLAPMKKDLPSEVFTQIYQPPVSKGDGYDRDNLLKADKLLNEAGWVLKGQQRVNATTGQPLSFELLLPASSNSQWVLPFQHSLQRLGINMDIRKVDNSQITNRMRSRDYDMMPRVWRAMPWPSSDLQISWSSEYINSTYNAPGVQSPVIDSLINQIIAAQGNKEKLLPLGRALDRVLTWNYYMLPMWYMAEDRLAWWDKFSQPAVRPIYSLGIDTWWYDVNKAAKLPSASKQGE
Sequence of UniProt P97287 (152-308, looked up): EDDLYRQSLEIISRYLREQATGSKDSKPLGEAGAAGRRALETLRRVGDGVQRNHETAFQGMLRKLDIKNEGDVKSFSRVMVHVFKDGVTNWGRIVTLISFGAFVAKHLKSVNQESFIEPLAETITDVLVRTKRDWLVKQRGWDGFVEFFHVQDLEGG
Sequence of UniProt P46108 (whole entry, looked up): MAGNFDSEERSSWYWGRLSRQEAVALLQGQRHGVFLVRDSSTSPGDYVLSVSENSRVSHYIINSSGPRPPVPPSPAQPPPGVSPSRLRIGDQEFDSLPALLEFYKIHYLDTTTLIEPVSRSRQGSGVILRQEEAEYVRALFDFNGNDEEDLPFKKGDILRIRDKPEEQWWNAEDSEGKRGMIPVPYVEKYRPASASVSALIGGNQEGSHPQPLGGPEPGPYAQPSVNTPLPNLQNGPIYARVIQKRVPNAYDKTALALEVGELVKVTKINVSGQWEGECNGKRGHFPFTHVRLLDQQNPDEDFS
Sequence of UniProt P53350 (whole entry, looked up): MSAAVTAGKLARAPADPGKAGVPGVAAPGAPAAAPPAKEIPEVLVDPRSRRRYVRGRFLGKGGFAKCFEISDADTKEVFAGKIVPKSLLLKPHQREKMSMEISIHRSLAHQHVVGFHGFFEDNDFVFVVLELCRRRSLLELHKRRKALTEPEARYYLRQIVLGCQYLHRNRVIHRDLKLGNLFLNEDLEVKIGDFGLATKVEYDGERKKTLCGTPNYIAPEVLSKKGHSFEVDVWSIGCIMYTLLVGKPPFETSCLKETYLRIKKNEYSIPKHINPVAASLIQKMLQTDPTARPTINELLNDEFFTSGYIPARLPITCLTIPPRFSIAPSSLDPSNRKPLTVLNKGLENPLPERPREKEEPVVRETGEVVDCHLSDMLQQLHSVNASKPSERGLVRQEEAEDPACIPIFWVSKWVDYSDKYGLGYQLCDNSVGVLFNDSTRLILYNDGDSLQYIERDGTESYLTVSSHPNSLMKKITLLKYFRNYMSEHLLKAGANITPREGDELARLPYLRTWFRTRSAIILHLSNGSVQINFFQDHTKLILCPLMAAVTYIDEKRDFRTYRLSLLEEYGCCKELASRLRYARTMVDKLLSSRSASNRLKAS

CC(=O)N[C@@H](CCCNC(=N)N)C(=O)N[C@H](C(=O)N1CCC[C@H]1C(=O)N[C@@H](COP(=O)(O)O)C(=O)N[C@@H](CC(C)C)C(=O)N1CCC[C@H]1C(=O)N[C@@H](C)C(=O)N1CCC[C@H]1C(c1ccccc1)c1ccccc1)[C@@H](C)O  Kd (YWHAZ; isothermal titration calorimetry): 4.67 ± 0.99 µM
CC(C)C[C@H](NC(=O)[C@H](Cc1c[nH]c2ccccc12)NC(=O)CNC(=O)[C@H](Cc1ccccc1)NC(=O)[C@H](CO)NC(=O)[C@H](Cc1c[nH]c2ccccc12)NC(=O)CNC(=O)[C@@H]1CCCN1C(=O)[C@@H]1CCCN1)C(=O)N[C@@H](Cc1c[nH]cn1)C(=O)N[C@@H](C)C(=O)N1CCC[C@H]1C(=O)O  Kd (VSIR IgV domain; binding, microscale thermophoresis): 0.036 µM
CC(CO)C1CN2C(=O)[C@H](CC(=O)O)NC(=O)CC(CC3CC3)NC(=O)[C@H](CCC(=O)O)NC(=O)CNC(=O)[C@H]([C@@H](C)O)NC(=O)[C@H](CCC(=O)O)NC(=O)[C@@H]2C1(F)F (stereo partly shown)  Kd (KEAP1 (Homo sapiens, UniProt Q14145); binding, MST; pH 6): ~0.007 µM
CC(C)C[C@H](NC(=O)[C@H](CS)NC(=O)[C@H](CC(=O)O)NC(=O)[C@H](C)NC(=O)[C@H](CO)NC(=O)[C@H](Cc1c[nH]cn1)NC(=O)[C@H](CC(=O)O)NC(=O)[C@H](CO)NC(=O)[C@@H](NC(=O)CNC(=O)[C@H](CC(=O)O)NC(=O)[C@H](CC(=O)O)NC(=O)[C@H](CC(C)C)NC(=O)[C@@H](N)CC(=O)O)C(C)C)C(=O)N[C@@H](CC(=O)O)C(=O)N[C@@H](CCC(N)=O)C(=O)N[C@@H](CC(=O)O)C(=O)N[C@@H](CO)C(=O)O  Kd (Beta-arrestin-1 (Arrb1, Rattus norvegicus, UniProt P29066); isothermal titration calorimetry; pH 8.0, 298 K): 1.09 ± 0.05 µM
CSCC[C@H](NC=O)C(=O)N[C@@H](CCCNC(=N)N)C(=O)N[C@H](C(=O)NCC(=O)N[C@@H](CC(N)=O)C(=O)N[C@@H](C)C(=O)N[C@@H](CC(N)=O)C(=O)NCC(=O)NCC(=O)N[C@@H](CCCCNC(=S)Nc1ccc2c(c1)C(=O)OC21c2ccc(O)cc2Oc2cc(O)ccc21)C(=O)O)[C@@H](C)O  Kd (Uncharacterized protein YejA (yejA, Escherichia coli, UniProt P33913, D179A); binding, fluorescence polarisation; YejA variant D161A): 35.7 ± 4.35 µM
CC(=O)NC1C(O)OC(CO)C(OC2OC(CO)C(OC3OC(CO)C(O)C(O)C3O)C(O)C2O)C1O (stereo not shown)  Kd (sly (Streptococcus suis, UniProt Q55996, T481A); binding): 4.59 µM
CC[C@H](C)[C@@H]1NC(=O)[C@H](C)NC(=O)[C@H](CCC(N)=O)NC(=O)[C@@H](NC(=O)CN)CSSC[C@@H]2NC(=O)CNC(=O)[C@H](C)NC(=O)[C@H](CC(C)C)NC(=O)[C@@H]3CSSC[C@@H](C(=O)NCC(=O)O)NC(=O)[C@H](Cc4ccccc4)NC(=O)CNC(=O)[C@H](CC(N)=O)NC(=O)[C@@H]4CCCN4C(=O)CNC(=O)[C@H](CSSC[C@H](NC(=O)[C@H](CCCNC(=N)N)NC(=O)[C@H](CCC(N)=O)NC(=O)[C@H](CCCNC(=N)N)NC(=O)[C@H](CCCCN)NC(=O)[C@H](C(C)C)NC(=O)[C@H](CCCNC(=N)N)NC(=O)[C@H](CC(N)=O)NC1=O)C(=O)N[C@@H](CCCCN)C(=O)N[C@@H](CCC(N)=O)C(=O)N[C@@H](CC(=O)O)C(=O)N[C@@H](CO)C(=O)N[C@@H](CC(=O)O)C(=O)N3)NC(=O)[C@H](C(C)C)NC2=O  Kd (Low-density lipoprotein receptor-related protein 6, E1 domain (LRP6, Homo sapiens, UniProt O75581); binding, SPR; pH 7.5): 0.0335 µM
CSCC[C@H](NC(=O)CNC(=O)[C@H](CCCNC(=N)N)NC(=O)[C@H](C)NC(=O)[C@@H](NC(=O)[C@H](CCC(N)=O)NC(=O)[C@H](Cc1ccc(OP(=O)(O)O)cc1)NC(=O)[C@H](C)NC(=O)[C@H](CS)NC(=O)[C@H](CO)NC(=O)[C@@H](NC(=O)[C@H](CC(C)C)NC(=O)[C@H](CC(=O)O)NC(=O)[C@H](CCCCN)NC(=O)[C@H](CO)NC(=O)[C@H](CO)NC(=O)c1ccc2c(c1)C(=O)OC21c2ccc(N(C)C)cc2Oc2cc(N(C)C)ccc21)C(C)C)C(C)C)C(=O)N[C@@H](CCC(=O)O)C(=O)N[C@@H](CC(=O)O)C(=O)O  Kd (Adapter molecule crk, SH2 domain (Homo sapiens, UniProt P46108); binding): 0.26 µM
CC(C)C[C@H](NC(=O)[C@H](CCCCN)NC(=O)CNC(=O)[C@H](Cc1ccccc1)NC(=O)[C@H](CO)NC(=O)[C@H](Cc1c[nH]c2ccccc12)NC(=O)[C@H](Cc1c[nH]c2ccccc12)NC(=O)[C@@H]1CCCN1C(=O)[C@@H]1CCCN1)C(=O)N[C@@H](Cc1c[nH]cn1)C(=O)N[C@@H](C)C(=O)N1CCC[C@H]1C(=O)O  Kd (VSIR IgV domain; binding, microscale thermophoresis): 12.3 µM
N=C(N)NCc1cn([C@@H]2[C@@H](OCCn3cc(COCCOCCOCCn4cc(-c5cc(OCCOCCO)c(C#Cc6cc(OCCOCCO)c(C#Cc7cc(OCCOCCO)c(-c8cn(CCOCCOCCOCc9cn(CCO[C@H]%10O[C@H](CO)[C@@H](O)[C@H](O)[C@@H]%10n%10cc(CNC(=N)N)nn%10)nn9)nn8)cc7OCCOCCO)cc6OCCOCCO)cc5OCCOCCO)nn4)nn3)O[C@H](CO)[C@@H](O)[C@@H]2O)nn1  Kd (C-type lectin domain family 4 member M, extracellular domain (CLEC4M, Homo sapiens, UniProt Q9H2X3); binding, surface binding; apparent Kd): 0.0249 µM and 0.0247 µM
CC(C)C[C@H](NC(=O)CNC(=O)[C@H](C)NC(=O)[C@H](CC(=O)O)NC(=O)[C@H](CC(=O)O)NC(=O)[C@H](C)NC(=O)[C@@H]1CCCN1C(=O)[C@H](CCCCN)NC(=O)CNC(=O)[C@@H]1CCCN1C(=O)[C@@H]1CCCN1C(=O)[C@@H]1CCCN1C(=O)[C@H](CCC(=O)O)NC(=O)CN)C(=O)N[C@@H](C)C(=O)O  Kd (F-box only protein 22 (Homo sapiens, UniProt Q8NEZ5); binding, SPR): 32 µM
CC[C@H](C)[C@@H]1NC(=O)[C@@H](C)NC(=O)[C@H](CCC(=O)N[C@@H](CCCCN)C(N)=O)NC(=O)[C@@H](C)NC(=O)[C@@H](C)NC(=O)[C@H](Cc2c[nH]c3ccccc23)NC(=O)[C@H](Cc2ccc(O)cc2)NC(=O)[C@H](CCCNC(=N)N)NC(=O)[C@H](Cc2ccc(F)cc2)NC1=O  Kd (cysS (Escherichia coli, UniProt P21888); binding): 0.7 µM
CC(=O)N[C@@H](CCCNC(=N)N)C(=O)N[C@H](C(=O)N[C@@H](CCCCN)C(=O)N[C@@H](CCC(N)=O)C(=O)N[C@H](C(=O)N[C@@H](C)C(=O)N[C@@H](CCCNC(=N)N)C(=O)N[C@@H](CCCCNC(=O)c1ccccc1)C(=O)N[C@@H](CO)C(=O)N[C@H](C(=O)NCC(=O)NCC(=O)N[C@@H](CCCCN)C(=O)N[C@@H](C)C(=O)N1CCC[C@H]1C(N)=O)[C@@H](C)O)[C@@H](C)O)[C@@H](C)O  Kd (Protein AF-9 (Homo sapiens, UniProt P42568, F28S); ITC; 15 °C, mutant): 3.8 µM
CC(=O)N[C@@H](CCC(=O)O)C(=O)N[C@@H](CCC(=O)O)C(=O)N[C@@H](CCC(=O)O)C(=O)N[C@@H](Cc1c[nH]c2ccccc12)C(=O)N[C@@H](C)C(=O)N[C@@H](CCCNC(=N)N)C(=O)N[C@@H](CCC(=O)O)C(=O)N[C@@H](CC1CCCCC1)C(=O)NCC(=O)N[C@@H](C)C(=O)N[C@@H](CCC(N)=O)C(=O)N[C@@H](CC(C)C)C(=O)N[C@@H](CCCNC(=N)N)C(=O)N[C@@H](CCCNC(=N)N)C(=O)N[C@@H](C)C(=O)N[C@@H](C)C(=O)N[C@@H](CC(=O)O)C(=O)N[C@@H](CC(=O)O)C(=O)N[C@@H](CC(C)C)C(=O)N[C@@H](CC(N)=O)C(=O)N[C@@H](C)C(=O)N[C@@H](CCC(N)=O)C(=O)N[C@@H](Cc1ccc(O)cc1)C(=O)N[C@@H](CCC(=O)O)C(=O)N[C@@H](CCCNC(=N)N)C(=O)N[C@@H](CCCNC(=N)N)C(=O)N[C@@H](CCCNC(=N)N)C(N)=O  Kd (Induced myeloid leukemia cell differentiation protein Mcl-1 homolog, residues 152-308 (Mus musculus, UniProt P97287); binding, SPR; 0.2% DMSO): 0.0143 µM
CC(C)C[C@H](NC(=O)[C@@H]1CCCN1C(=O)CCOCCOCCOCCOCCOCCOCCOCCOCCNC(=S)Nc1ccc2c(c1)C(=O)OC21c2ccc(O)cc2Oc2cc(O)ccc21)C(=O)N[C@@H](Cc1cncn1CCCCCCCCc1ccccc1)C(=O)N[C@@H](C)C(=O)N[C@H](C(N)=O)[C@@H](C)CP(=O)(O)O  Kd (Serine/threonine-protein kinase PLK1, polo-box domain (PLK1, Homo sapiens, UniProt P53350)): 0.0245 ± 0.0013 µM
CC(=O)N[C@@H](Cc1ccc(O)cc1)C(=O)N[C@@H](CC(N)=O)C(=O)N1CCC[C@H]1C(=O)N[C@@H](Cc1ccccc1)C(=O)N[C@@H](CCC(=O)O)C(=O)N[C@@H](CCC(=O)O)C(=O)NCC(=O)NCC(N)=O  Kd (EH domain-containing protein 1, EH domain (Homo sapiens, UniProt Q9H4M9); peptide binding, ITC; 20 °C, 15 mM NaCl): 11.1 µM and 9.17 µM and 8.54 µM and 8.62 µM
O=C(N[C@@H]1c2ccccc2C[C@H]1N1CCCC1)c1ccc(-c2ccnc3[nH]ccc23)nc1  Kd (GRK7 (Homo sapiens, UniProt Q8WTQ7); binding, competition with immobilised ligand): 0.31 µM
C=CC[C@H]1OC(=O)CCNC(=O)[C@H](C)N(C)C(=O)[C@H]([C@@H](C)CC)N(C)C(=O)[C@H]([C@@H](C)CC)NC(=O)[C@@H]2[C@@H](C)CCN2C1=O  Kd (Platelet-derived growth factor receptor beta, extracellular domain (PDGFRB, Homo sapiens, UniProt P09619); SPR; 16 °C, extracellular domain immobilised): 4.98 µM
CC(C)C[C@H](NC(=O)[C@H](CCP(=O)(O)O)NC(=O)[C@@H](NC(=O)[C@@H](NC(=O)[C@H](CCCNC(=N)N)NC(=O)[C@H](CC(C)C)NC(=O)[C@H](CO)NC(=S)Nc1ccc2c(c1)C(=O)OC21c2ccc(O)cc2Oc2cc(O)ccc21)[C@@H](C)O)C(C)C)C(=O)NCC(=O)N[C@@H](C)C(=O)NCC(=O)N[C@@H](C)C(=O)N[C@@H](Cc1c[nH]c2ccccc12)C(=O)N[C@@H](CC(C)C)C(=O)N[C@H](C(=O)N1CCC[C@H]1C(=O)N[C@@H](CCCNC(=N)N)C(=O)O)C(C)C  Kd (YWHAZ; binding, fluorescence anisotropy; pH 7.5, FITC-labelled phosphopeptide titration): 36.3 µM

A few entries again:
CC(=O)NC1C(O)OC(CO)C(OC2OC(CO)C(OC3OC(CO)C(O)C(O)C3O)C(O)C2O)C1O (stereo not shown)  Kd (sly (Streptococcus suis, UniProt Q55996, T481A); binding): 4.59 µM
CC(C)C[C@H](NC(=O)[C@H](CCCCN)NC(=O)CNC(=O)[C@H](Cc1ccccc1)NC(=O)[C@H](CO)NC(=O)[C@H](Cc1c[nH]c2ccccc12)NC(=O)[C@H](Cc1c[nH]c2ccccc12)NC(=O)[C@@H]1CCCN1C(=O)[C@@H]1CCCN1)C(=O)N[C@@H](Cc1c[nH]cn1)C(=O)N[C@@H](C)C(=O)N1CCC[C@H]1C(=O)O  Kd (VSIR IgV domain; binding, microscale thermophoresis): 12.3 µM
CC(C)C[C@H](NC(=O)[C@@H]1CCCN1C(=O)CCOCCOCCOCCOCCOCCOCCOCCOCCNC(=S)Nc1ccc2c(c1)C(=O)OC21c2ccc(O)cc2Oc2cc(O)ccc21)C(=O)N[C@@H](Cc1cncn1CCCCCCCCc1ccccc1)C(=O)N[C@@H](C)C(=O)N[C@H](C(N)=O)[C@@H](C)CP(=O)(O)O  Kd (Serine/threonine-protein kinase PLK1, polo-box domain (PLK1, Homo sapiens, UniProt P53350)): 0.0245 ± 0.0013 µM
